Experimental data collected from several papers.
Compare with care: the assays were run in different laboratories.
Target: Bifunctional epoxide hydrolase 2 (EPHX2, Homo sapiens, UniProt P34913)
Chain of UniProt P34913 (whole entry, looked up): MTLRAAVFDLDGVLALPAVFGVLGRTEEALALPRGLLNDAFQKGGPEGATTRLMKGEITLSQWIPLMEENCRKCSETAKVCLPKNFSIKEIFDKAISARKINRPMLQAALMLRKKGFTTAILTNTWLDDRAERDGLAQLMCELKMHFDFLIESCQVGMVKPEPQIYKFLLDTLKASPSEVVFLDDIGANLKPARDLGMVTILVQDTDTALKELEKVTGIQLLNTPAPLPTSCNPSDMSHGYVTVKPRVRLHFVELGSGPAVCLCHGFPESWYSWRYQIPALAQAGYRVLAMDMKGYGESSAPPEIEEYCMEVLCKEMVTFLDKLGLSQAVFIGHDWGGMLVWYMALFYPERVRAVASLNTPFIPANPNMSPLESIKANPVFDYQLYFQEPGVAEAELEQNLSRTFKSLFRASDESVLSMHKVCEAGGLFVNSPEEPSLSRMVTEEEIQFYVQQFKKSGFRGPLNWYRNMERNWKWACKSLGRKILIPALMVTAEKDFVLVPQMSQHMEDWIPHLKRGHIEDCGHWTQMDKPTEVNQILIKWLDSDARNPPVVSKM
Observed: enzyme activity
Mode: inhibitor

SMILES	method	pH	notes	IC50 [nM]
CC12CC3CC(C)(C1)CC(NC(=O)Nc1ccc(C(=O)N4CCCC(C(N)=O)C4)cc1)(C3)C2 (centres unmarked)				0.25
CCS(=O)(=O)N1CCC(NC(=O)Nc2ccc(OC(F)(F)F)cc2)CC1				2.4
O=C(NCCc1ccc(O)cc1)C1=Cc2cc(O)c(O)cc2[C@H](c2ccc(O)c(O)c2)[C@H]1C(=O)NCCc1ccc(O)cc1				8300
CONC(=O)C1CCN(C(=O)c2ccc(NC(=O)NC34CC5CC(C)(CC(C)(C5)C3)C4)cc2)CC1				0.92
O=C(/C=C/c1ccc(O)c(O)c1)NCCc1ccc(O)cc1				3200
O=C(Nc1ccc(-c2nc(-c3ccccc3)cs2)cc1)C1CCN(Cc2ccccc2F)CC1	fluorescence	pH 7.4	with preincubation	1180
CC1(C)[C@H]2CC[C@]1(C)[C@@H](NC(=O)Nc1ccc(F)cc1)C2	fluorescence			4
CC(=O)N1CCN(C(=O)c2ccc(NC(=O)NC34CC5CC(C)(CC(C)(C5)C3)C4)cc2)CC1				1.21
O=C(Nc1ccc(-c2nc(-c3ccccc3)cs2)cc1)C1CCN(Cc2ccc(O)cc2)CC1	fluorescence	pH 7.4	with preincubation	281
CC12CC3CC(C)(C1)CC(NC(=O)Nc1ccc(C(=O)N4CCC(NC(=O)C5CC5)CC4)cc1)(C3)C2				0.6
O=C(Nc1ccc(-c2nc(-c3ccccc3)cs2)cc1)C1CCN(Cc2ccccc2O)CC1	fluorescence	pH 7.4	with preincubation	136
N#CC1=C(N)n2c(nnc2-c2ccccc2)NC1c1ccc(Br)cc1 (centres unmarked)	fluorescence			3.2
O=C(Nc1ccc(-c2nc(-c3ccccc3)cs2)cc1)C1CCN(Cc2cccnc2)CC1	fluorescence	pH 7.4	with preincubation	38.8
CC12CC3(C)CC(C)(C1)CC(NC(=O)NC14CC5CC(CC(C5)C1)C4)(C2)C3	fluorescence			6.1

Repeated from above:
SMILES	method	pH	notes	IC50 [nM]
N#CC1=C(N)n2c(nnc2-c2ccccc2)NC1c1ccc(Br)cc1 (centres unmarked)	fluorescence			3.2
CONC(=O)C1CCN(C(=O)c2ccc(NC(=O)NC34CC5CC(C)(CC(C)(C5)C3)C4)cc2)CC1				0.92
